Results from different studies.
Parts stem from different laboratories: compare values within a part only.

Series 1 — method: RNA Bind-n-Seq; molecule type: RNA; medium: in vitro; tested at: 365 nM; baseline: no-protein control; reading: higher = stronger binding
Target: RNA binding protein fox-1 homolog 2, RRM domain, GST-SBP tag (RBFOX2, Homo sapiens, UniProt O43251-10, residues 100-194)
Notes: natural RNA segment, single round, ends assumed
Target sequence (chain): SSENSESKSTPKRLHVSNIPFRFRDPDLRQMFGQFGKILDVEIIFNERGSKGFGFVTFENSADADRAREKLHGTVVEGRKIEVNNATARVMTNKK
Oligonucleotide | RBNS enrichment (R)
GGGAGUUCUACAGUCCGACGAUCAUCAGUUCUGCACACCUCCAGGGGUGGAUCCAGCUGUAAGGCCAUACCUAUAUCUUCCAGAUGUCCUCAUCUGCUGCAGGGCUUUGGCCCUGCUCAGGAUAAUGUGCUAUUGGAAUUCUCGGGUGCCAA | 0.228
GGGAGUUCUACAGUCCGACGAUCUUUAAAUUUUCAAAAGAAAAUUUUCUUUCAACAUUUCUUGAAGGACAUGGAGUGGAGAUUGGAUCAUUUAACAAUAUAACAAAACUUCCUGAUUUGAUUUUACGUAUCUUUGGAAUUCUCGGGUGCCAA | 0.673
GGGAGUUCUACAGUCCGACGAUCACAUUUUCUAGAUUUUUUUGUUGUUAUAUAUUGAGAUAUAAAAUAUGGCUAUGUUGCUUAAGAUUCUCAGGGAUAGACUUAUUUUUGUUAACUUCAUUCUUUCCUGCUGUUGGAAUUCUCGGGUGCCAA | 0.888

Series 2 — method: protein binding microarray; molecule type: double-stranded DNA, one strand shown; medium: in vitro; tested at: not given; baseline: not given; reading: higher = stronger binding
Target: Histone acetyltransferase KAT6A, both winged helices, GST fusion (KAT6A, Homo sapiens, UniProt Q92794, residues 1-181)
Notes: 8-mer, flanks averaged, mean of 2 arrays, mostly near background
Residues (chain): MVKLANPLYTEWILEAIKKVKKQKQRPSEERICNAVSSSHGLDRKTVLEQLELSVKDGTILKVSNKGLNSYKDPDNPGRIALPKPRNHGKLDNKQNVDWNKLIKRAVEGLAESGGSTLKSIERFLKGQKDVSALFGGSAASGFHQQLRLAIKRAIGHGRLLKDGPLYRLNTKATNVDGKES
Oligonucleotide | E-score
CCTCGTCA | -0.0224
AATCACAT | -0.049
AATGCTTG | -0.0631

Series 3 — method: aptamer microarray, sandwich; molecule type: DNA with 2'F-ANA; medium: in vitro; tested at: 200 nM; added: Cy3 exosite-II aptamer, 400 nM; reading: higher = stronger binding
Target: Prothrombin, mature alpha-thrombin (F2, Homo sapiens, UniProt P00734)
Notes: whole 15-mer aptamer, many near background
Oligonucleotide | mean fluorescence intensity [a.u.]
GGTTGGTGTGGTTGG (2'F-ANA at 2 3 5 7 9 11 12 13 14) | 55.1
GGTTGGTGTGGTTGG (2'F-ANA at 4 9 12 14 15) | 110
GGTTGGTGTGGTTGG (2'F-ANA at 5 6 8 11 13 14) | 48
GGTTGGTGTGGTTGG (2'F-ANA at 2 3 4 5 6 9 10 12 14 15) | 64.3

Further values, each from its own experiment
Substance | target | test | system | conditions | scale | quantity | result
PhoQ, residues 284 288 289 292 302 303 NLGVHL | PhoP, residues 12 14 15 18 19 NQAHL (Escherichia coli, UniProt P23836) | Sort-seq, measured: YFP reporter | E. coli | PhoQ-PhoP variant library, added: 10 µM Mg2+ | baseline: high Mg2+ state, higher = stronger signaling | fold induction | 18

Excerpt of the above (further values, each from its own experiment):
Substance | target | test | system | conditions | scale | quantity | result
PhoQ, residues 284 288 289 292 302 303 NLGVHL | PhoP, residues 12 14 15 18 19 NQAHL (Escherichia coli, UniProt P23836) | Sort-seq, measured: YFP reporter | E. coli | PhoQ-PhoP variant library, added: 10 µM Mg2+ | baseline: high Mg2+ state, higher = stronger signaling | fold induction | 18
